Measurements pooled from the literature.
Protocols differ between the studies behind these lines. ± gives the spread as reported.
Target: Muscarinic acetylcholine receptor M1 (CHRM1, Homo sapiens, UniProt P11229)
Residues used in one study (P11229 1-460): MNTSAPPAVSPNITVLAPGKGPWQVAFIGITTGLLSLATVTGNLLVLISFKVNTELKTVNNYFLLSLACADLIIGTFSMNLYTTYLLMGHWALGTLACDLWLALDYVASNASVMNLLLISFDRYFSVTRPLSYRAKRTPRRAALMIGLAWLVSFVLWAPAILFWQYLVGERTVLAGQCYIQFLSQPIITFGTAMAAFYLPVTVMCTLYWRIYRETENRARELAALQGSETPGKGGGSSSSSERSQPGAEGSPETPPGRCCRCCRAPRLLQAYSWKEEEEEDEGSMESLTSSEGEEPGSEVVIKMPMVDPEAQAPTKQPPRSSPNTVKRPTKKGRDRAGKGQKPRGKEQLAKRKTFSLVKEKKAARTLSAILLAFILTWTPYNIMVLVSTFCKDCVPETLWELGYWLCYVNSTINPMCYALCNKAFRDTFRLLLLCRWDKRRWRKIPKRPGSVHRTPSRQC

| SMILES | assay | test system | setting | scale | endpoint | value |
| --- | --- | --- | --- | --- | --- | --- |
| COCC(=O)N1CCc2cc(-c3csc(NC(=O)c4cc(OC)cc(OC)c4)n3)ccc21 | ligand displacement, radioligand |  | 10 µM |  | inhibition | 11% |
| CC(C)Cn1c(SCC(=O)N2CCc3ccccc3C2)nc2cc(Cl)ccc2c1=O | ligand displacement, radioligand |  | 10 µM |  | inhibition | -15% |
| CCCCCCOc1ccc(C(=O)OCCN2CC=CCC2)cc1 |  | membranes | 100 µM, 15 h, no carbachol | baseline: control | basal binding | 1.12 ± 0.05 fold |
| C[Si]1(C[C@H](CN)CC(=O)O)CCCC1 | ligand displacement, radioligand |  | 70 µM |  | inhibition | 8% |
| C=CCn1c(=O)c2ccccc2n2c(SC(C(=O)OCC)c3ccccc3)nnc12 (centres unmarked) | receptor activation, agonist |  | concentration not given, 16 h |  | Emax | 237 ± 65% |
| CCCCOc1ccc(C(=O)OCCN2CC=CCC2)cc1 |  | membranes | 10 µM, 15 h, no carbachol | baseline: control | basal binding | 0.83 ± 0.02 fold |
| C=CCn1c(=O)c2ccccc2n2c(SC3CCOC3=O)nnc12 (centres unmarked) | receptor activation, agonist |  | concentration not given, 16 h |  | Emax | 124 ± 12% |
| Cc1cccc(O[C@H]2CCC[C@@H](C(C)CNCc3ccncc3)C2)c1 (relative stereo) | ligand displacement |  | 10 µM |  | inhibition | 75% |
| C[Si](C)(C)C[C@H](CN)CC(=O)O | ligand displacement, radioligand |  | 250 µM |  | inhibition | 23% |
| COc1ccc(C(=O)Nc2c(-c3cccs3)nc3ccccn23)cc1 | ligand displacement, radioligand |  | 10 µM |  | inhibition | < 50% |
| O=C1c2sc(-c3ccc(N4CCC(CO)CC4)nc3F)nc2CCN1c1cccnc1 | ligand displacement, radioligand |  | 1 µM |  | inhibition | -2% |
| C=CCn1c(=O)c2ccccc2n2c(SCC(=O)OC)nnc12 | receptor activation, agonist |  | concentration not given, 16 h |  | Emax | 149 ± 13% |
| CCCCCCOc1ccc(C(=O)OCC[N+]2(C)CC=CCC2)cc1 (centres unmarked) |  | membranes | 100 µM, 15 h, no carbachol | baseline: control | basal binding | 0.97 ± 0.03 fold |
| CNC(=O)C[C@H](Cc1ccc(C#N)cc1)NC(=O)c1cc(-c2ccc(CN[C@H](C)c3ccc(C)cc3)o2)ccc1Cl | agonist response, antagonist | human cells | 10 µM, M1 antagonist |  | inhibition | 44% |

Excerpt of the above:
| SMILES | assay | test system | setting | scale | endpoint | value |
| --- | --- | --- | --- | --- | --- | --- |
| COCC(=O)N1CCc2cc(-c3csc(NC(=O)c4cc(OC)cc(OC)c4)n3)ccc21 | ligand displacement, radioligand |  | 10 µM |  | inhibition | 11% |
| CCCCCCOc1ccc(C(=O)OCCN2CC=CCC2)cc1 |  | membranes | 100 µM, 15 h, no carbachol | baseline: control | basal binding | 1.12 ± 0.05 fold |
